Results from different studies.
A part holds a random share of what one study measured. Substitutions count along the parent as printed.

Block 1 — method: RNA Bind-n-Seq; form: RNA; sample: in vitro; concentration: not given; reference: input RNA pool; reading: higher = stronger binding
Target: RING finger protein unkempt homolog, zinc fingers 1-6, GST-SBP tag (UNK, Homo sapiens, UniProt Q9C0B0, residues 30-357)
Notes: RNA with constant flanks, human and mouse sites, ends assumed
Constant ends, left off below: GGGAGUUCUACAGUCCGACGAUC … CAACAGAGGAUUGAGCAUCA
Target sequence (chain): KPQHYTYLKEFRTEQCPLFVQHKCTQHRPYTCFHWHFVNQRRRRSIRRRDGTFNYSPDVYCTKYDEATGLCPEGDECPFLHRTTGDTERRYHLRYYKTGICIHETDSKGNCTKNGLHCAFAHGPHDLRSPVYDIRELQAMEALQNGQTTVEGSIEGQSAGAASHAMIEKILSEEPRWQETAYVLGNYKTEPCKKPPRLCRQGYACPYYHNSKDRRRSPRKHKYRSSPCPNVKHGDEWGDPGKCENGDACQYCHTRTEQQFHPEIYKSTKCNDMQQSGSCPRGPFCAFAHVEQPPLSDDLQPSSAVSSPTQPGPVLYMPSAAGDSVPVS
| Strand | bound/input enrichment |
| --- | --- |
| ACGCCAUCUUUAAGGUUCUGAAUGAGAAGAAACUUCAAGAGGUUGAUAGUUUGUGGAAAGAAUUUGAAACUCCAGAGAAAGCAAAUAAAAUAGUAAAGCUAAAACAUUUUGAGAAAUUUC | 0.791 ratio |
| GAGGUGGUUCCUAUUCACCAACUGGACAUUCCUGUUGAUAACCCAAUCGAGAGCAAUAACAUUUUUCUGGUGGCCCCUUUGAUCAUCUGCCACGUGAUUGACAAGCGCAGUCCCCUGUAU | 0.254 ratio |
| GAUAUCCAAGCUUGCGUGGACCAUGUGAACCUGGUGGUGCAAGAGGAACAUGAGAGGAUUUUAGCCAUUGGUUUAAUUAAUGAAGCCCUGGAUGAAGGUGAUGCCCAAAAGACUCUGCAG | 0.48 ratio |
| GGAUUCCGGUUCCGGUGGGCCUCCAUCAGCAAGCUCCAGUGCUACGUGUCCCUGGCAUUUUAGGUGUCGGUUGGGUAGGCAGUCAUGGAUCAGGUAAUGCAGUUUGUUGAGCCAAGUCGG | 0.293 ratio |
| AGGCGUGUGCCUCUAGCUGAUAAACCUCAUGAGAAAACCAUGUGCUGUCAGCACCAGGUGCAUGCCAUUGAGUUUGUUUGCUUGGAAGAAGGUUGUCAAACUAGUCCACUCAUGUGCUGU | 0.11 ratio |
| CUUGUAAUUCUCACCAUCAUGGCCACCCUGAAAAUCAGGAACUCCAACUUCUACACGGUGGCAGUGACCAGCCUGUCCAGCCAGAUUCAGUACAUGAACACAGUGGUGAAUUUUACCGGG | 0.197 ratio |
| AAAAACUUGGCCCUUAUGACACACAUCACAACUGAUAUGGAAGAUGGACCCAUUGUUAAAUUAGCCAGUAACUUGGGAGUAGAAGAUGUGAAUUUAUUAUGUGGGGAAGAGCUCUCUUAC | 0.401 ratio |
| UACUUCAGCUCCGGGAAUGAGCCUGCAGAAAACCCGGUGACGCCGAUGCUGCGGCAUCUUAUGUACAAAAUAAAGUCUACUGGUCCCAUCACUGUGGCCGAGUACAUGAAGGAGGUGUUG | 0.0901 ratio |

Block 2 — target: CCND3, cyclin fold, Cln2 fusion (human); method: yeast growth competition, sequencing; sample: yeast; notes: weak parent motif; reference: not given; reading: higher = stronger binding
Parent: CDKN1A docking peptide (human); SKACRRLFGPVDS; partner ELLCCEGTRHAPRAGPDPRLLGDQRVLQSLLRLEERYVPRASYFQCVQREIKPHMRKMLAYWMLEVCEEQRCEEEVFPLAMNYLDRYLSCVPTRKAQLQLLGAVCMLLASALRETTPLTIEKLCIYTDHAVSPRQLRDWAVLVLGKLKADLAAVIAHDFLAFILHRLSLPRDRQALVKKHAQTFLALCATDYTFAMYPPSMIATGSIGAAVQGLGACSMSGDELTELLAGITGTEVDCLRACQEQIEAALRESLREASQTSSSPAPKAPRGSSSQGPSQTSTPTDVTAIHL
| Substitution | normalised enrichment score |
| --- | --- |
| SKACRRYFGPVDS [L7Y] | 0.408 |
| SKAYRRLFGPVDS [C4Y] | -0.378 |
| SKACRRLFGPGDS [V11G] | 0.0823 |
| SKFCRRLFGPVDS [A3F] | -0.422 |
| SKSCRRLFGPVDS [A3S] | -0.00268 |
| SKACRRLFEPVDS [G9E] | 0.455 |

Block 3 — method: RNA Bind-n-Seq; form: RNA; sample: in vitro; concentration: 365 nM; reference: no-protein control; reading: higher = stronger binding
Target: RNA binding protein fox-1 homolog 2, RRM domain, GST-SBP tag (RBFOX2, Homo sapiens, UniProt O43251-10, residues 100-194)
Notes: natural RNA segment, single round, ends assumed
Constant ends, left off below: GGGAGUUCUACAGUCCGACGAUC … UGGAAUUCUCGGGUGCCAA
Construct (chain): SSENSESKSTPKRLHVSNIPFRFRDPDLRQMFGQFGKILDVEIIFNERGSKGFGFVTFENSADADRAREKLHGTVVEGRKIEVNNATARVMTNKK
| Strand | RBNS enrichment (R) |
| --- | --- |
| ACACAUUUGCAUAUACCCACAUGGGGACAUAAGCUAAUUUUUUUACAGGACACAGAAUUCUGUUCAAUGCUGUUAAAUAUGCCAAUAGUUUAAUCUCUUCUAUUUUGUUG | 0.624 |
| GCCCCAUCUCCCCAUAGCCUGAGUGAUGAGGUGGCCCCAGAGCUGAUCUCUGCUGCUGUGUCUUUAUCUACCCUUGCUAGCCCCGGCUCUGGUAGACCGUUCUGGAAUGG | 0.346 |
| AAGGACCUACUGCAUGCCUGUCCCCAGGGCCCCGGUGGAAGGAAGGCAGCGCCUGCUCUUCCUUAACUCAGCCCAUCAUCUGAAAAUUCAGAAGUGAACCAAGGGUUAGA | 22.3 |
| CUAGUAAAAAAUAACCCAGCAGUAAAUAAUAAAGAAAUUACUGAAUGAGAGGAUAAUGAAUCUGAAUCAUAGCAGGAAUUUGCAAUAUUAAUUAUGGUUAGCUAUUUUUC | 0.471 |
| ACUACAUUUGUCUAAGAUAUCUCUGCUAUUGACACAUGAUGCCUUUGAAUGUCAUAGAGCAUAUUUUCUCUUUUUGCCUGUUUGCACUCUGCCAUUGCACUUUGUAAAUC | 2.24 |

Mixed results
| Molecule | target | test | system | setting | scale | endpoint | value |
| --- | --- | --- | --- | --- | --- | --- | --- |
| PhoQ, residues 284 288 289 292 302 303 TASMAF | PhoP, residues 12 14 15 18 19 HLGGL (Escherichia coli, UniProt P23836) | Sort-seq, item: YFP reporter | E. coli | PhoQ-PhoP variant library, with: 10 µM Mg2+ | reference: high Mg2+ state, higher = stronger signaling | fold induction | 19.7 |

Repeated from above (block 2):
| Substitution | normalised enrichment score |
| --- | --- |
| SKACRRYFGPVDS [L7Y] | 0.408 |
| SKACRRLFGPGDS [V11G] | 0.0823 |
